Assay results gathered from unrelated publications.
Parts stem from different laboratories: compare values within a part only. Values joined by “and” are separate records of one study, mostly repeats; a detail may differ.
Sequence of UniProt P42679 (whole entry, looked up): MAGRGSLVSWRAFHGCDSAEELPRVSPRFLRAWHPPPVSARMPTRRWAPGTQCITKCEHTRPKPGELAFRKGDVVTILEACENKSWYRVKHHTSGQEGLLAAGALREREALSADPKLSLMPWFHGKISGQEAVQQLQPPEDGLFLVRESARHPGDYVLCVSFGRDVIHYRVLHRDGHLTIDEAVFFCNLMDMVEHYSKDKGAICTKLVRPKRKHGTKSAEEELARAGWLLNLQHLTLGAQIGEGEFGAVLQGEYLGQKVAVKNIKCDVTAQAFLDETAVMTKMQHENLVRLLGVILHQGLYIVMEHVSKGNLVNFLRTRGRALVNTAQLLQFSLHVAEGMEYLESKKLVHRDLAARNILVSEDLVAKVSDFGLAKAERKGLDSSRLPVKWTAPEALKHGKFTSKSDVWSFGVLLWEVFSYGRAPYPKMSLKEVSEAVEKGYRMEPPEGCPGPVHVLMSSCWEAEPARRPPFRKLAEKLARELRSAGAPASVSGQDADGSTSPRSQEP
Sequence of UniProt P30530 (whole entry, looked up): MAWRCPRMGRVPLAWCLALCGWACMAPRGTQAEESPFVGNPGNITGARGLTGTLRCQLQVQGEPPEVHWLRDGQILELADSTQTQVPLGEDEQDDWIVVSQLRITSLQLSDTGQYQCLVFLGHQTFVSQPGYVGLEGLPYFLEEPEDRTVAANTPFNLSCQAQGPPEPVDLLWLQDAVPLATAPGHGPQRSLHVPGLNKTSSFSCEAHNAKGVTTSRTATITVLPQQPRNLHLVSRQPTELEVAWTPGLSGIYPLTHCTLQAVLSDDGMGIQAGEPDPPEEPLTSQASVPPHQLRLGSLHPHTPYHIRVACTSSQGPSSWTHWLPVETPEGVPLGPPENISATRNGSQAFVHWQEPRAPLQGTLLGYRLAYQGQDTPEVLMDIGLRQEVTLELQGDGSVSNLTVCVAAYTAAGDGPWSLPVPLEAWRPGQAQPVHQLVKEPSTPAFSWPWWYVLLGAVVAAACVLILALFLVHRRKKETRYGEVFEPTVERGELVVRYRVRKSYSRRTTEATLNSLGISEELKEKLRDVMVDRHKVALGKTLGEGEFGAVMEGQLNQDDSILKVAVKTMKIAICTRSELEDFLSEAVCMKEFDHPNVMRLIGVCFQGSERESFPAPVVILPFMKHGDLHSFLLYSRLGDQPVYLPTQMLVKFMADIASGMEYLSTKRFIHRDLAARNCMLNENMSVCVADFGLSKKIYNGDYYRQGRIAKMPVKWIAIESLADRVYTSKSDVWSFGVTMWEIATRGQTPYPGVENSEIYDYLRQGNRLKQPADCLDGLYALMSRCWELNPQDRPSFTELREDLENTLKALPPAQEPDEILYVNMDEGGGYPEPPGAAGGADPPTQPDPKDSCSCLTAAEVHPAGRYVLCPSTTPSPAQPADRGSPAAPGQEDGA
Sequence of UniProt Q02156 (whole entry, looked up): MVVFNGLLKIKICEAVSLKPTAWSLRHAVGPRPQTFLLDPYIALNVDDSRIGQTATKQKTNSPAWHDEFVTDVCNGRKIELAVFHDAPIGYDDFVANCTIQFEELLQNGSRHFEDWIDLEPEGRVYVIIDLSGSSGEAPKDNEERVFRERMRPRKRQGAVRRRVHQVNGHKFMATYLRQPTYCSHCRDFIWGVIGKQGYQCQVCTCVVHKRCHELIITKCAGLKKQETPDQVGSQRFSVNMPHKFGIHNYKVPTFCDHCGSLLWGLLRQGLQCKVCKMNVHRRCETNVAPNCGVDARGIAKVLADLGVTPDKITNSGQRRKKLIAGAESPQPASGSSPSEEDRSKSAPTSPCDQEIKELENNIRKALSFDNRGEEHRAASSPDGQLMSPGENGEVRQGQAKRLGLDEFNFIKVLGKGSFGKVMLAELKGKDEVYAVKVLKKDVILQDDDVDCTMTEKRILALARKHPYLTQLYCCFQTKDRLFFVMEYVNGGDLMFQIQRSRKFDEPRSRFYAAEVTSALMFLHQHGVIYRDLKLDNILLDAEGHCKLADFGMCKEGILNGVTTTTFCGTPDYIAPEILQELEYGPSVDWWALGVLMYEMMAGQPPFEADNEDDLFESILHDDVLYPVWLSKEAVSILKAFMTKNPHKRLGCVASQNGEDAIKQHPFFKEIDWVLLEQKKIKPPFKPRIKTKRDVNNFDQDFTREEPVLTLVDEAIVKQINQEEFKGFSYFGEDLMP
Sequence of UniProt P51451 (whole entry, looked up): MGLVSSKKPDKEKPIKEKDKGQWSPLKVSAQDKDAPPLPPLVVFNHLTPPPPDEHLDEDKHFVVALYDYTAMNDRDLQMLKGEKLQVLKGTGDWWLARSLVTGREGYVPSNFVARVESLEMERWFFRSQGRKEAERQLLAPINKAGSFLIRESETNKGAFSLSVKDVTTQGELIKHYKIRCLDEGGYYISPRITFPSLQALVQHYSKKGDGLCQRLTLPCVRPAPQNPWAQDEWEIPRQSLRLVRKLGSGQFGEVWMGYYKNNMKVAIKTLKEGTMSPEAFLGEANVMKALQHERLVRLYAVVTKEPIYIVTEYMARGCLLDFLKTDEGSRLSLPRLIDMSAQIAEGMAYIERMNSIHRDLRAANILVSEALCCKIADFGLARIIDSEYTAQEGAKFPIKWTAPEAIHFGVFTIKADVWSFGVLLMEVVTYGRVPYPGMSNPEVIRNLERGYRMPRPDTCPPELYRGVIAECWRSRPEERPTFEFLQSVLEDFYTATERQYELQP
Sequence of UniProt P42685 (whole entry, looked up): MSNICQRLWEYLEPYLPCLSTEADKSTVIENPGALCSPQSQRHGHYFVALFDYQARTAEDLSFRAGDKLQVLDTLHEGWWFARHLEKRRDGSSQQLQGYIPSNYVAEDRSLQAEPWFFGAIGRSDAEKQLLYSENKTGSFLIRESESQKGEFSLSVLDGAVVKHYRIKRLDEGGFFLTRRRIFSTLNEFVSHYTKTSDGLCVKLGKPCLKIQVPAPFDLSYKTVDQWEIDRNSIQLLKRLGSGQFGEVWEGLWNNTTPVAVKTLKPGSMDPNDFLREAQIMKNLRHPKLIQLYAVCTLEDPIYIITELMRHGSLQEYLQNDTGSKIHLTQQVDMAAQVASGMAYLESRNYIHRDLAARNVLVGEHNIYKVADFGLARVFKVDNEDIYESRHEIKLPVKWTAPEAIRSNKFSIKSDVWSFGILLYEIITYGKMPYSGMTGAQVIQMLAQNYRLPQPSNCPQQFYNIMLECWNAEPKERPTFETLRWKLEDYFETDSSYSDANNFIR
Sequence of UniProt Q14164 (whole entry, looked up): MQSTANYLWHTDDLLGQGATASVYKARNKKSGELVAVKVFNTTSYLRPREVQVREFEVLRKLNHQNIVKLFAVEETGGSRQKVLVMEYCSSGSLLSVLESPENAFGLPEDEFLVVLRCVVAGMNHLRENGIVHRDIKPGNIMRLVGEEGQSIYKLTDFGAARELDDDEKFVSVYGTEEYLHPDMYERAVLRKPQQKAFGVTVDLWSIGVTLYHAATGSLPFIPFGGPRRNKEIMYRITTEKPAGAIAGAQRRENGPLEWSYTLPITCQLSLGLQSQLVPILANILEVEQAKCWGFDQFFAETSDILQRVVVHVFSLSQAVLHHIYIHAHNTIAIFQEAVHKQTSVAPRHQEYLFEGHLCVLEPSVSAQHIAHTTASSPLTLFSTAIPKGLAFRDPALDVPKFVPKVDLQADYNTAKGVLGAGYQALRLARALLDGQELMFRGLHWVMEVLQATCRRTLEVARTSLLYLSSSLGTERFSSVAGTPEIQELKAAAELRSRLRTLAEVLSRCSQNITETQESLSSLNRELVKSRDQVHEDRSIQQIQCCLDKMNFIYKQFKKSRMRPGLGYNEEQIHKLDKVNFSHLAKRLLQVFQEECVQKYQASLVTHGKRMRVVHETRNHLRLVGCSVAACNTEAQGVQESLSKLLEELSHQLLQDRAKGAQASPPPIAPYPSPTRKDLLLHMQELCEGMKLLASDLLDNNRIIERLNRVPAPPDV
Sequence of UniProt Q8IVH8 (whole entry, looked up): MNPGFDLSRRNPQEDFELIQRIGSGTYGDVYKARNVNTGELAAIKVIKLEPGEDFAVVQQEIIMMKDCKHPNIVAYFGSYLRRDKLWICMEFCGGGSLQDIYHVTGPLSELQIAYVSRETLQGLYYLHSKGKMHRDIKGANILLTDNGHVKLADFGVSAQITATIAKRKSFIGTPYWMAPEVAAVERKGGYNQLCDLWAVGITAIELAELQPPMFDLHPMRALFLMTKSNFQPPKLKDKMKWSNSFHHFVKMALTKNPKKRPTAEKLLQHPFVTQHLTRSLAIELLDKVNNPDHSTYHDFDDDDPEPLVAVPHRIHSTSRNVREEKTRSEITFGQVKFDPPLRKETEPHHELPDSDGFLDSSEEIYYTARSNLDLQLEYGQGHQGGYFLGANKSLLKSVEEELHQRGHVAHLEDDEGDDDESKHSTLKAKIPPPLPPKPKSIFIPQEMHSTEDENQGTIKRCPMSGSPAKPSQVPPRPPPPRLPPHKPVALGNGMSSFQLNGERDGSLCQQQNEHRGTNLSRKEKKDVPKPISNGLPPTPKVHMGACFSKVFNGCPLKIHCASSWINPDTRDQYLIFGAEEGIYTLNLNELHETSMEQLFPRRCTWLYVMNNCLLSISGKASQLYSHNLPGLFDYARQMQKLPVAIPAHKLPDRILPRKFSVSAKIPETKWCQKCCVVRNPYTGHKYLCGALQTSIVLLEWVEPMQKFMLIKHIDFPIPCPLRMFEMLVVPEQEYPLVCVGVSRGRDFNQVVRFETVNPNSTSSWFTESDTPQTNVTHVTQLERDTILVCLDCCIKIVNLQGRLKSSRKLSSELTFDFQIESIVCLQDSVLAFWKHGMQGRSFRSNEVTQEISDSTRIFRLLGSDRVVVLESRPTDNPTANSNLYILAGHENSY

Set 1
Structure (SMILES): O=Nc1c(-c2c(O)[nH]c3ccccc23)[nH]c2ccccc12
Effect on: enzyme activity
Action: inhibitor
Concentration: 0.5 µM
Reference: control
| target | remaining activity |
| --- | --- |
| RPS6KA6 (Homo sapiens, UniProt Q9UK32) | 52.2% |
| AXL (Homo sapiens, UniProt P30530) | 82.3% |
| CAMK2B (Homo sapiens, UniProt Q13554) | 87.5% |
| SRMS (Homo sapiens, UniProt Q9H3Y6) | 102% |
| BLK (Homo sapiens, UniProt P51451) | 75.1% |
| PHKG1 (Homo sapiens, UniProt Q16816) | 31.5% |
| EPHB1 (Homo sapiens, UniProt P54762) | 86.2% |
| Cyclin-dependent kinase 6, with cyclin D3 (CDK6, Homo sapiens, UniProt Q00534) | 26.1% |
| HIPK4 (Homo sapiens, UniProt Q8NE63) | 102% |
| MAP4K4 (Homo sapiens, UniProt O95819) | 42% |
| DYRK3 (Homo sapiens, UniProt O43781) | 106% |
| ABL1 (Homo sapiens, UniProt P00519) | 82.5% |
| HIPK2 (Homo sapiens, UniProt Q9H2X6) | 104% |
| MAPKAPK3 (Homo sapiens, UniProt Q16644) | 103% |
| STK17A (Homo sapiens, UniProt Q9UEE5) | 46% |
| STK16 (Homo sapiens, UniProt O75716) | 54.8% |
| Cyclin-dependent kinase 4, with cyclin D3 (CDK4, Homo sapiens, UniProt P11802) | 98.9% |
| TSSK2 (Homo sapiens, UniProt Q96PF2) | 97.7% |
| WNK3 (Homo sapiens, UniProt Q9BYP7) | 89.4% |
| EPHB4 (Homo sapiens, UniProt P54760) | 85.9% |
| EPHA4 (Homo sapiens, UniProt P54764) | 89.4% |
| RPS6KA5 (Homo sapiens, UniProt O75582) | 67% |

Set 2
Species: mouse
Sample: microsomes or S9
Concentration: 2 µM
Time: 0.5 h
| SMILES | remaining compound [%] |
| --- | --- |
| CCN(C1=C(N2CCC(C)CC2)C(=O)c2ccccc2C1=O)c1ccccc1 | 0.0446 |
| CC(C)COc1cc(=O)n2c(c1C(=O)NCc1ccc(C(F)(F)F)cc1)CCCCC2 | 3.75 |
| CC(=O)c1c(Nc2ccc(F)cc2)nn(-c2ccccc2)c1C | 1.12 |
| CC(C)(C)C(=O)N1CC(C(=O)NC2CCCC2)C2(CCOCC2)C1 (centres unmarked) | 54.7 |
| C=CCn1cc(Cl)cc/c1=N\C=C(/C#N)C(=O)OCC | 24.1 |
| Cn1c(=O)c(-c2ccc3ccccc3n2)cc2cc(Br)ccc21 | 0.338 |
| Cc1cccc(S(=O)(=O)Nc2nc3ncc(Br)nc3s2)c1 | 96.2 |
| Cc1nc(N2CCN(C)CC2)nc2c1C(=O)CC(c1ccco1)C2 (centres unmarked) | 0.114 |
| Cc1cnc(CC2CCCN(C(=O)NC(C)(C)C)C2)n1CC1CC1 (centres unmarked) | 5.49 |
| Cc1nc(C(C)(C)C)nc(N2CCC(n3cncn3)CC2)c1C | 32.3 |
| Cc1ccc(N2CC(c3nc(-c4cc5c(C)nn(-c6ccccc6)c5s4)no3)CC2=O)cc1 (centres unmarked) | > 100 |
| COC(=O)c1c(NCc2ccccc2C(F)(F)F)c2cccc(Cl)c2[nH]c1=O | 47.7 |
| CC(C)(C)n1cc(Nc2cccc(F)c2C#N)cn1 | 0.936 |

Set 3
SMILES: CC(C)S(=O)(=O)c1ccc2nccc(Nc3ccc4sc(C5CCCC5)nc4c3)c2c1.Cl
Effect on: kinase activity
Action: inhibitor
Concentration: 1 µM
| target | remaining activity |
| --- | --- |
| MATK (Homo sapiens, UniProt P42679) | 98% and 120% |
| ATM (Homo sapiens, UniProt Q13315) | 99% |
| CAMKK1 (Homo sapiens, UniProt Q8N5S9) | 92% |
| MAP4K3 (Homo sapiens, UniProt Q8IVH8) | 88% |
| CDK1 (Homo sapiens, UniProt P06493) | 79% |
| STK39 (Homo sapiens, UniProt Q9UEW8) | 99% |
| CHEK1 (Homo sapiens, UniProt O14757) | 105% |
| CDC42BPB (Homo sapiens, UniProt Q9Y5S2) | 111% |
| PRKCE (Homo sapiens, UniProt Q02156) | 90% |
| IKBKE (Homo sapiens, UniProt Q14164) | 106% |
| FRK (Homo sapiens, UniProt P42685) | 73% |

Mixed results
| SMILES | target | effect on | technique | endpoint | value |
| --- | --- | --- | --- | --- | --- |
| O=C([C@H]1C[C@H](O)CN1c1ccc(Cl)cc1)N1CC2COCC(C1)N2Cc1ccc(Cl)cc1 | Alpha-2B adrenergic receptor (ADRA2B, Homo sapiens, UniProt P18089) | binding | radioligand binding | Ki | > 10 µM |

For quick reference, copied from above (set 1):
| target | remaining activity |
| --- | --- |
| EPHA4 (Homo sapiens, UniProt P54764) | 89.4% |
| ABL1 (Homo sapiens, UniProt P00519) | 82.5% |
| SRMS (Homo sapiens, UniProt Q9H3Y6) | 102% |
| EPHB1 (Homo sapiens, UniProt P54762) | 86.2% |
| CAMK2B (Homo sapiens, UniProt Q13554) | 87.5% |
| PHKG1 (Homo sapiens, UniProt Q16816) | 31.5% |
